Published values of several laboratories.
A part holds a random share of what one study measured.

Series 1
Target: Histone acetyltransferase KAT6A, both winged helices, GST fusion (KAT6A, Homo sapiens, UniProt Q92794, residues 1-181)
Technique: protein binding microarray
Form: double-stranded DNA, one strand shown
Medium: in vitro
Concentration: not given
Setting: 8-mer, flanks averaged, mean of 2 arrays, mostly near background
Relative to: not given
Direction: higher = stronger binding
Quantity: E-score
Residues (chain): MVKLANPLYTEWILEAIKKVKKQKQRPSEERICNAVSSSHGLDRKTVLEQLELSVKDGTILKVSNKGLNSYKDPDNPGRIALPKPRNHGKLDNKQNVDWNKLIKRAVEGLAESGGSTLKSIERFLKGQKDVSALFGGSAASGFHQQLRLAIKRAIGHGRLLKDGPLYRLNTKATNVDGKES
Strand = ATTCGTAA; value = -0.104
Strand = ATAAAGAG; value = 0.00046
Strand = TAGGTAAA; value = -0.115
Strand = AACGTGAG; value = -0.0407
Strand = ATTCCGAA; value = 0.0601
Strand = GAACGCCC; value = 0.0456
Strand = ATTTTAGC; value = 0.0337
Strand = CGGGCGAA; value = 0.225
Strand = CAGGGCGC; value = 0.276
Strand = CCGTAATA; value = 0.166
Strand = ACAAACAG; value = -0.0892
Strand = ACATTCCG; value = 0.11
Strand = AATCTAGG; value = -0.107
Strand = CAGGTGCC; value = 0.0134
Strand = CTCAACAG; value = -0.0581
Strand = GTGGTCCA; value = -0.219
Strand = TAACTATA; value = -0.153
Strand = ACGATCAC; value = -0.00865
Strand = ATCTCCAG; value = -0.207
Strand = CCTCGTCC; value = -0.149
Strand = GCGAAAGC; value = 0.0696
Strand = GTTTCGCA; value = 0.011
Strand = ATCGTGGG; value = -0.118
Strand = AGGGTAAG; value = -0.138
Strand = GCTTATCA; value = -0.161

Series 2
Target: RNA binding protein fox-1 homolog 2, RRM domain, GST-SBP tag (RBFOX2, Homo sapiens, UniProt O43251-10, residues 100-194)
Technique: RNA Bind-n-Seq
Form: RNA
Medium: in vitro
Concentration: 365 nM
Setting: natural RNA segment, single round, ends assumed
Relative to: no-protein control
Direction: higher = stronger binding
Quantity: RBNS enrichment (R)
Shared flanks, not repeated: GGGAGUUCUACAGUCCGACGAUC … UGGAAUUCUCGGGUGCCAA
Target sequence (chain): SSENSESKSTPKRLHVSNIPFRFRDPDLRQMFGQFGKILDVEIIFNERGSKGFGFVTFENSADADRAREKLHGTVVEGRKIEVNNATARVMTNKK
Strand = ACUUGGUCUUCUGUGUUCUAGAGAACAGCACUGCUCUGACAAGUGAAUUCUUGAUAAAUGGCUAAUGCUUUUCUCUCACACUGCUAAUCUUUGGAUGGAAACCAUUCUUU; value = 0.261
Strand = AUUUGGGCUUUAACACACUGGGUACUUUGUGGGUCUCUCUUUCGUCGGUGGCUUAAAGUAACAUCUAUUUCCAUUGAUCCUAGGUUCUUCCUGACUGCUUUCUCCAACUG; value = 0.351
Strand = GUGUAAGUUUAAUUAAUUGUAUAUUGUGUGAAUAGAACAACUUAAAUAUUACAGCAAUACACUGGGCUAGUGUCUCACAAAUAACUGAUUUACUCAGAGCCACCUGACAG; value = 0.357
Strand = CACCCACACUAGCCCCAGAAUACGGUCCCUCUUCACCUUCUGAGGCCCACGAUAGACCAGCUGUAGCUCAUUCCAGCCUGUACCUUGGAUGAGGGGUAGCCUCCCACUGC; value = 0.662
Strand = AUAGAACUGUCUGCUCUCCACCUUUUCCUCACUCUACAUUUAGUCAUCACACUGAACAGGAUGUGGCCUGCUGACAGUGAGUAGCUGAAGUGCCUGUUUGGUAAGUAGGU; value = 0.351
Strand = GAAGGCCAGCCCUUACCCCAACACCCACUUCCCCACCUCCUUAGGCCCCAGAUACAUACAUGCCCACAUGCACGCUUACAUGUUUAGAGCCAUCCUUGUUUCCAAAUAUG; value = 2.78
Strand = UGACACUGACUUGUGACAUAGGGACAUACCAGCCCCCUCCAGGGCUUUGGCCACUUGAAGUUCCUGUUAGUGAGGCUCCAAGGAUCUACCAAGGUGCUAUGGCGCAAAGG; value = 0.225
Strand = UAAUAGAUCUGUACCUAUCUAUCUCUGUACGCAUAUAUACAGUUCACUGUAGAAAACCACAGCUAGCGAGCAUCGCAGACUCAUGCAAACCAAGUGAUCUUGUUUACAGU; value = 0.333
Strand = CCAAGUAACUUGGCUGUGAAAUGGCAGAAGGAACCUUCUCUCAAGCAGGUAGGUCAAGAGAUGGGCCAUAUAUAUACUGAUAUACUGGUUGACCUGCCAUCACCGCUCAC; value = 1.51
Strand = UGACAAAAUGACUUUCAUGUUAAGGGGAAAUGCUGUUUAUCUACUCAGACAUGCAUCUGUGAUGUUCAUAGCCUUGUUUCAGUUAUAAUAGUUGUCUUGUUUUUUUCUUA; value = 1.08
Strand = AAAGUGAAAUGCCACUUAGUUCUCAAUUGAUGACAGUGUUUGAAUCAUCAUAAAAAAAAUACCUGCUUUUCAUCUGGACAACCCAAUUGAGCCACUUUAUCUCCUUUUGG; value = 0.436
Strand = UUGCUGCUAUUGUGUUAACAUUUUUGUUUUGCUUGCCAUGAGGCCCCAUUUCCACCUCCCAGUAAACUGACUUAUAAAUUGCUAUACUUUUCCUGUUUUUUCUGUUGCUG; value = 0.663

Series 3
Target: Interferon regulatory factor 7, full length, phosphomimetic (IRF7, Homo sapiens, UniProt Q92985, residues 1-503, S471D/S472D/S475D/S476D/S477D/S483D/S484D/S487D)
Technique: protein-binding microarray
Form: double-stranded DNA, one strand shown
Medium: in vitro
Concentration: 2200 nM top
Setting: 60-bp whole probe
With: salmon DNA 0.4 mg/ml
Relative to: random background probes
Direction: higher = stronger binding
Quantity: fitted relative affinity
Shared flanks, not repeated: GCCTAGCAC … GTCTTGATTCGCTTGACGCTGCTG
Target sequence (chain): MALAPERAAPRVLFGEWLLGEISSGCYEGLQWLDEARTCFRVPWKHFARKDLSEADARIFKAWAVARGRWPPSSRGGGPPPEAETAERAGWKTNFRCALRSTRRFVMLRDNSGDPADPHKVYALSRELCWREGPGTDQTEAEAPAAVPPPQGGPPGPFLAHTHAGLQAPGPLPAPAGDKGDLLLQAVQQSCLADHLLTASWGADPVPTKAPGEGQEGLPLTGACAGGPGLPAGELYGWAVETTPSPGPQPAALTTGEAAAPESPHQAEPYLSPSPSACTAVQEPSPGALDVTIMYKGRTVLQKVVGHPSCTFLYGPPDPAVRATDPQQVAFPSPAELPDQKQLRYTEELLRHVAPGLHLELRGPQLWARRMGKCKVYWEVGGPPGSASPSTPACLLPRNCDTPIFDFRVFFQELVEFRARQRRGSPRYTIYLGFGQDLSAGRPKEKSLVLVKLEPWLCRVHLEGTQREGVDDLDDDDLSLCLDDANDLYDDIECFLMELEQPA
Strand = GACGGTCGCCTTATCCTGACGTGCTAG; value = 0.517 z-score
Strand = TTAGGTTTCGGCTCCGGTTAGTGCTAG; value = 3.55 z-score
Strand = TTAGATCTGAGTCTCGATTAGTGCTAG; value = 0.3 z-score
Strand = TCAGTCTTCACTCTGCTACTGTGCTAG; value = 1.58 z-score
Strand = ATAGATATCGGGACTGGATTAGTGCTA; value = -0.122 z-score
Strand = TTAGGTTCCCTTTTCCTTTAGTGCTAG; value = 3.31 z-score
Strand = GACGGTCTCCTTCTTCTGACGTGCTAG; value = 1.27 z-score
Strand = TTAGGTATCGACTTTAGGTTAGTGCTA; value = 0.571 z-score
Strand = GACGATTTAGGGTTTCGAGACGTGCTA; value = 1.29 z-score
Strand = TCAAAAGTGTTTCTCAAACTGTGCTAG; value = -0.346 z-score
Strand = GACGATTTCATACTGGAGACGTGCTAG; value = 0.661 z-score
Strand = GACGATACCAGACTGGAGACGTGCTAG; value = 0.0758 z-score
Strand = GACGGTTTCCTACTGTTGACGTGCTAG; value = 1.99 z-score
Strand = GACGCTCTCGGTATCGGGACGTGCTAG; value = 0.62 z-score
Strand = TCAAAAATGAATATTAGACTGTGCTAG; value = -1.05 z-score
Strand = GACGTTTTCGGTTTCGGGACGTGCTAG; value = 13.9 z-score

Series 4
Target: RING finger protein unkempt homolog, zinc fingers 1-6, GST-SBP tag (UNK, Homo sapiens, UniProt Q9C0B0, residues 30-357)
Chain of UniProt Q9C0B0 (30-357, looked up): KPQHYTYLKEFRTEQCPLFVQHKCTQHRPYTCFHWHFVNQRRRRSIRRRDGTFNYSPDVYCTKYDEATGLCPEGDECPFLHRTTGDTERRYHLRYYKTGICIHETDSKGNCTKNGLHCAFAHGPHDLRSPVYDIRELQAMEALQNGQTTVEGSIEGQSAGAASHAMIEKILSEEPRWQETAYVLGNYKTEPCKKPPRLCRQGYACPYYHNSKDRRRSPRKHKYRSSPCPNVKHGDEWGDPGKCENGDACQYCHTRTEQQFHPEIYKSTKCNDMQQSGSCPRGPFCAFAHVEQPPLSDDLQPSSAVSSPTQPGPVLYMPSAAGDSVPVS
Technique: RNA Bind-n-Seq
Form: RNA
Medium: in vitro
Concentration: not given
Setting: RNA with constant flanks, ends assumed
Relative to: input RNA pool
Direction: higher = stronger binding
Quantity: bound/input enrichment
Shared flanks, not repeated: GGGAGUUCUACAGUCCGACGAUC … CAACAGAGGAUUGAGCAUCA
Strand = ACACCUCUGUUUCUUGCUGCCCGGGAGGGGAGCUAUGAAGCAGCCAAGAUCCUGUCCGACCAUUUUGCCAAUCGAGACAUCACAGACCAUAUGGAUCGUCUUCCCCGGGAUGUGGCUCGG; value = 0.125 ratio
Strand = AUAACAUUACACGAAAUGGCAGAAACAGAUGAAGGAUGGUUGGAUGUUGUCCAGUCUUUAAUCCGAGUUAUUCCACUGGAAGAUCCACUGGGACCAGCUGUUAUAACAUUGUUACUAGAU; value = 0.129 ratio
Strand = GUGACUUUGGAAGUCCGUAGUGUCUCAUUGCAGAUAAUUUUUAGCUUAGGGCCUGGUGGCCCGGUCGGUUCUCUCCUUUCCAGUCGGAGACCUCUGCCGCAAACAUGCUCCGCCAGAUCA; value = 11.6 ratio
Strand = CCAGCCCCAGUGCCAUCCAGGAGAAACCCCCCUGGCGGCAAGUCCAGCCUGGUCUUGGGUCCGCUUCUUGUGUUGGAACUCUGUCCUUCUGUCUGUCUGUUUGUUGUCCCAUGCUUGGGA; value = 0.336 ratio
Strand = AGUAAACCUGGCAGCUAUAGAAUACACUAUGUGCAUUUAUAAUAGCUAUUUUAUAUAUUGCCGUAUCAACAUUUUUAAAUUAAAUGUUUUACAUUCACAAGUGGUGGGGAGUCUUGUCAU; value = 0.822 ratio
Strand = ACAGCAUUCAUAGUAGAAAGAGACUUUGGUGGAGUCACUAAUGGGAAACCCGAAGAUAAAUCCGGCAUUCGGGGCUCCAACACUUGUGAAGUCCAUUUUGAAAACACCAAGAUACCUGUG; value = 0.182 ratio
Strand = GUGGAGUUGAUGUCCUUCCCUGGCUCGCUACAGACGCACUUCCGCAAGUGUUACAGCUCUUUCCGAAUUUGUCUAGCAGGUUUUCUGACUUCGGUCGGAAAACCCCUCCCAAUUUCACUG; value = 0.272 ratio
Strand = ACAAUUUAUGAGAUUAUUGAUAAUUCUCAAGGAUUCUACGUUUGUCCAGUGGAGCCCCAAAACCGAAGCAAGAUGAAUAUUCCAUUCCGCAUUGGCAAUGCCAAAGGAGAUGAUGCUUUA; value = 0.17 ratio
Strand = UAGUGAAUGGUUUCCCCAGUGUAUAUGAAUGUUUUAAGUGUUUCCAAUAGCUUAUGAAAUUCCGGAGCUUUCUAAUACUCGUUUUAUAAAUUUAAUCAUUUGCUAAUGGAAAUUUUACCA; value = 4.66 ratio
Strand = GAGGACCCAAGGUUGAUUCUCAUCACUUUUUUAAAUACUCCGAUUGCGGCCAAUCUGCCAACCGGAUUCUUAGAGCUCACCCCGCUCGUUGGAUUGAUCCGCUGGUGCGUGAAGGCACCC; value = 0.198 ratio
Strand = UUACAUUUAGGGUUUAUCAGAGCUUAAACUACUCUUAAAUUAUUUUCUAAACCUGCCGUACAAUGUAUCAUUGUAACUUCAACCAUUUUAUCCAAAGUAAACACCCAGCAAAAACAUAGU; value = 1.98 ratio

Excerpt of the above (series 1):
Strand = ATTCCGAA; value = 0.0601
Strand = ATCTCCAG; value = -0.207
Strand = ATCGTGGG; value = -0.118
Strand = GCTTATCA; value = -0.161
Strand = ACATTCCG; value = 0.11
Strand = GTGGTCCA; value = -0.219
Strand = ACAAACAG; value = -0.0892
Strand = ATAAAGAG; value = 0.00046
Strand = TAACTATA; value = -0.153
